Results collected from several papers.
Protocols differ between the studies behind these lines. ± marks the error that the study gave. ≈ marks a conversion by molar mass, not a printed value.

For `CN1[C@@H]2CC[C@H]1C[C@@H](OC(=O)C(CO)c1ccccc1)C2` (stereo partly drawn), the lowest IC30 was over 30 µM (seizure ion channel panel; ion current, inhibitor; lowest across channels).
`O=C(CCc1ccc(Br)cc1)N[C@H]1CCOC1=O` has an activation of 8% (ExpR2 (Pectobacterium carotovorum); cellulase activity, agonist; Pectobacterium carotovorum, single-ExpR2 strain; 200 µM, 4 h; baseline: OHHL).
With `CC(=O)Oc1ccccc1C(=O)O` the lowest IC30 was over 30 µM (seizure ion channel panel; ion current, inhibitor; lowest across channels).
For `O=C(Cc1ccccc1I)N[C@H]1CCOC1=O`, the inhibition was 55% (ExpR2 (Pectobacterium carotovorum); cellulase activity, antagonist; Pectobacterium carotovorum, single-ExpR2 strain; 5 µM, 4 h, added: OHHL 5 µM).
With `C[C@H]1CO[C@@H]2Cn3cc(C(=O)NCc4ccc(F)cc4F)c(=O)c(O)c3C(=O)N12` the maximum response was -2.47% (biotinylated rabbit IgG; 11-point dose-response, protein A and streptavidin binding).
With `O=C(Cc1ccc(Br)cc1)N[C@H]1CCOC1=O` the activation was 25% (ExpR2 (Pectobacterium carotovorum); cellulase activity, agonist; Pectobacterium carotovorum, single-ExpR2 strain; 200 µM, 4 h; baseline: OHHL).
For `CCOP(=S)(OCC)Oc1cnc2ccccc2n1`, the IC50 was 0.327 µg/mL (nanobody A4; binding, ic-ELISA; added: H1-OVA coating antigen).
`CCCCCC(=O)CC(=O)N[C@H]1CCOC1=O` has an inhibition of 26% (ExpR2 (Pectobacterium carotovorum); cellulase activity, antagonist; Pectobacterium carotovorum, single-ExpR2 strain; 5 µM, 4 h, added: OHHL 5 µM).
`O=C(Nc1cccnn1)N1CCN([C@@H]2CCOc3cc(C(F)(F)F)ccc32)CC1` has an inhibition of -7% (GABAA; Cerep BioPrint; 20 µM).
For `Cc1cc(C2CCCCC2)n(O)c(=O)c1`, the maximum response was -32.8% (biotinylated rabbit IgG; 11-point dose-response, protein A and streptavidin binding).
The cross-reactivity of `CCOP(=S)(OCC)Oc1ccc([N+](=O)[O-])cc1` is reported as 162% (nanobody A4; ic-ELISA; concentration not given; baseline: coumaphos IC50 over compound IC50, mass basis).
`O=C1CC2(CCCC2)CC(=O)N1CCCCN1CCN(c2ncccn2)CC1` gave a lowest IC30 of over 30 µM (seizure ion channel panel; ion current, inhibitor; lowest across channels).
The maximum response of `COC(=O)Nc1nc2ccc(Sc3ccccc3)cc2[nH]1` is reported as -3.09% (biotinylated rabbit IgG; 11-point dose-response, protein A and streptavidin binding).
`CCCCCC(=O)N[C@H]1CCOC1=O` gave an activation of 94% (ExpR2 (Pectobacterium carotovorum); cellulase activity, agonist; Pectobacterium carotovorum, single-ExpR2 strain; 200 µM, 4 h; baseline: OHHL).
For `c1ccc(C(NCCNC(c2ccccc2)c2ccccc2)c2ccccc2)cc1`, the inhibition was -20% (nicotinic acetylcholine receptor, human; binding; 10 µM, Eurofins selectivity panel).
`O=C(Cc1ccccc1)NC1CCOC1=O` (stereo not drawn) has an activation of 21% (ExpR2 (Pectobacterium carotovorum); cellulase activity, agonist; Pectobacterium carotovorum, single-ExpR2 strain; 200 µM, 4 h; baseline: OHHL).
The IC50 of `CCOP(=S)(OCC)SCn1c(=O)oc2cc(Cl)ccc21` is reported as 2.87 µg/mL (nanobody A4; binding, ic-ELISA; added: H1-OVA coating antigen).
With `CC[C@H](C)[C@@H]1NC(=O)[C@H]([C@@H](C)O)NC(=O)CNC(=O)[C@H](CCC(=O)O)NC(=O)[C@H](CCCCN)NC(=O)[C@H](CC(C)C)NC(=O)[C@H](Cc2ccccc2)NC(=O)[C@H](CCCCN)NC(=O)[C@@H]2CSSC[C@H](NC(=O)[C@@H](N)CCC(=O)O)C(=O)N[C@@H](CCC(=O)O)C(=O)N[C@@H](CO)C(=O)NCC(=O)N3CCC[C@H]3C(=O)N[C@H]3CSSC[C@@H]4NC(=O)[C@H](Cc5ccc(O)cc5)NC(=O)[C@H](CC(=O)O)NC(=O)[C@H](CC(=O)O)NC(=O)[C@H](CCSC)NC(=O)[C@H](CC(=O)O)NC(=O)[C@H](CC(=O)O)NC(=O)CNC(=O)[C@H](CCCNC(=N)N)NC(=O)[C@H](C)NC(=O)[C@H](CCCNC(=N)N)NC(=O)[C@H](CCCCN)NC(=O)[C@H](CSSC[C@@H](C(=O)N5CCC[C@H]5C(=O)N[C@@H](CCCNC(=N)N)C(=O)N[C@@H](CC(N)=O)C(=O)N5CCC[C@H]5C(=O)N[C@@H](Cc5c[nH]cn5)C(=O)N[C@@H](CCCCN)C(=O)NCC(=O)N5CCC[C@H]5C(=O)N[C@@H](C)C(=O)N[C@H](C(=O)O)[C@@H](C)O)NC(=O)[C@H](CC(=O)O)NC(=O)[C@H](CSSC[C@H](NC3=O)C(=O)N[C@@H](CCCNC(=N)N)C(=O)N[C@@H](CC(N)=O)C(=O)N2)NC(=O)[C@H]([C@@H](C)O)NC(=O)[C@H](CCCCN)NC(=O)CNC(=O)[C@H](CC(N)=O)NC4=O)NC1=O` the IC50 was 0.0058 µM (integrin αvβ3 (human); cell adhesion to vitronectin, inhibitor; U-87 MG; 2 h, 37 °C).
For `Cc1ccc(-c2ccc(C)cn2)nc1`, the maximum response was 3.55% (biotinylated rabbit IgG; 11-point dose-response, protein A and streptavidin binding).
With `Oc1cccc2ccccc12` the inhibition was over 50% (human UGT; glucuronidation; human liver microsomes; 200 µM, 60 min, added: FBI-COOH 50 µM).
With `CSCCNc1nc(SCCC(F)(F)F)nc2c1ncn2[C@@H]1O[C@H](COP(=O)(O)OP(=O)(O)C(Cl)(Cl)P(=O)(O)O)[C@@H](O)[C@H]1O` the maximum response was 19.7% (biotinylated rabbit IgG; 11-point dose-response, protein A and streptavidin binding).
The cross-reactivity of `CCOP(=S)(OCC)SCCSCC` is reported as under 1% (nanobody A4; ic-ELISA; concentration not given; baseline: coumaphos IC50 over compound IC50, mass basis).
For `C/C1=C/C[C@@H](/C(C)=C/c2csc(C)n2)OC(=O)C[C@H](O)C(C)(C)C(=O)[C@H](C)[C@@H](O)[C@@H](C)CCC1`, the EC50 was 0.44 ± 0.02 µM (tubulin; tubulin assembly, stimulator; cell-free).
The maximum response of `C[C@H](CCC(=O)O)[C@H]1CC[C@H]2[C@@H]3CC[C@@H]4C[C@H](O)CC[C@]4(C)[C@H]3C[C@H](O)[C@]12C` is reported as 25.9% (biotinylated rabbit IgG; 11-point dose-response, protein A and streptavidin binding).
`O=C(Cc1cccc([N+](=O)[O-])c1)N[C@H]1CCOC1=O` has an inhibition of -4% (ExpR2 (Pectobacterium carotovorum); cellulase activity, antagonist; Pectobacterium carotovorum, single-ExpR2 strain; 5 µM, 4 h, added: OHHL 5 µM).
The lowest IC30 of `Cn1c(=O)c2[nH]cnc2n(C)c1=O` is reported as over 30 µM (seizure ion channel panel; ion current, inhibitor; lowest across channels).
With `COc1cc(Nc2ncc(F)c(Nc3ccc4c(n3)NC(=O)C(C)(C)O4)n2)cc(OC)c1OC` the IC50 was over 10 µM (KA potassium channel).
Under “number of kinases inhibited”, `CN(C)C(=O)c1cc2cnc(Nc3ccc(-c4ccc5c(=O)cc(N6CCOCC6)oc5c4)cc3)nc2n1C1CCCC1` is recorded as 11 (kinase panel; binding, KINOMEscan; 1.0 µM, of 468 kinases).
The cross-reactivity of `Brc1ccc(Oc2ccc(Br)cc2Br)c(Br)c1` is reported as under 0.1% (camel nanobody T2; binding, competitive ELISA; concentration not given).
`CCCCCCCCCC(=O)CC(=O)N[C@H]1CCOC1=O` gave an inhibition of 73% (ExpR2 (Pectobacterium carotovorum); cellulase activity, antagonist; Pectobacterium carotovorum, single-ExpR2 strain; 5 µM, 4 h, added: OHHL 5 µM).
`C[N+](C)(C)CCOP(=O)(O)O` has a ΔTm of 6.6 °C (SAR11_0797 protein (Candidatus Pelagibacter ubique); thermal stabilisation, differential scanning fluorimetry).
For `COP(=S)(OC)Oc1ccc([N+](=O)[O-])c(C)c1`, the IC50 was over 4 µg/mL (nanobody A4; binding, ic-ELISA; added: H1-OVA coating antigen).
`CO[C@H]1/C=C\C=C(/C)C(=O)NC2=CC(=O)C(NCCN(C)C)=C(C[C@@H](C)C[C@H](OC)[C@H](O)[C@@H](C)/C=C(\C)[C@@H]1OC(N)=O)C2=O` — result for activity: “inactive” (MyBP-C; MYBPC3 iPSC-derived cardiomyocytes (human); concentration not given, fresh powder retest).
`N[C@@H](Cc1c[nH]c2ccc(Cl)cc12)C(=O)O` gave an MIC of 12.5 µM (≈ 2.98 µg/mL) (tRNA methyltransferase TrmD, Escherichia coli; Escherichia coli, MG1655 tolC+ engineered, expressing TrmD, M9 medium with arabinose).
With `CCCCCC/C=C\CCCCCCCC(=O)O` the maximum response was 4.4% (biotinylated rabbit IgG; 11-point dose-response, protein A and streptavidin binding).
With `CCOP(=S)(OCC)Oc1nc(Cl)c(Cl)cc1Cl` the IC50 was over 4 µg/mL (nanobody A4; binding, ic-ELISA; added: H1-OVA coating antigen).
The maximum response of `O=C(NCc1c(F)cc(F)cc1F)c1cn2c(c(O)c1=O)C(=O)N1[C@H]3CC[C@H](C3)O[C@@H]1C2` is reported as -19.5% (biotinylated rabbit IgG; 11-point dose-response, protein A and streptavidin binding).
The IC50 of `CCOP(=S)(OCC)Oc1ccc(Cl)cc1Cl` is reported as over 10 µM (nanobody A4; binding, ic-ELISA).
For `Nc1nc2c(ncn2[C@@H]2O[C@@H]3COP(=O)(O)O[C@H]4[C@@H](O)[C@H](n5cnc6c(N)ncnc65)O[C@@H]4COP(=O)(O)O[C@@H]2[C@@H]3O)c(=O)[nH]1`, “persistence of STING oligomerization” read at least 2 h (STING (human); Blue-Native PAGE; HeLa Kyoto with inducible STING; concentration not given).
